{"data": "Results gathered from unrelated publications", "note": "A part holds a random share of what one study measured. Substitutions count along the parent as printed."}
{"data": "Block 1", "target": "RNA binding protein fox-1 homolog 2, RRM domain, GST-SBP tag (RBFOX2, Homo sapiens, UniProt O43251-10, residues 100-194)", "method": "RNA Bind-n-Seq", "molecule type": "RNA", "sample": "in vitro", "tested at": "365 nM", "setting": "natural RNA segment, single round, ends assumed", "relative to": "no-protein control", "reading": "higher = stronger binding", "Construct (chain)": "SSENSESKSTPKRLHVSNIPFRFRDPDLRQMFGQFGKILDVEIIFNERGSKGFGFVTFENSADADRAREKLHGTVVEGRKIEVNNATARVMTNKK"}
{"Oligonucleotide": "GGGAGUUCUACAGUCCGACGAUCUUCUCAAAAGCUGCUUUGUCUCUUUCCUGAGUUUAAUAGUGAAACUACUAAACAUUAAUAGAUUUGCACAGCCACAAAGAAUGAGAGUUGAUAAUACCGAAGAAGUGAUGUGGAAUUCUCGGGUGCCAA", "RBNS enrichment (R)": 0.269}
{"Oligonucleotide": "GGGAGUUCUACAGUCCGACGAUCAUUAUACACACACAGAGGCACUCACCGCUGGCUCUCCUUUCCUUGGGGAUUGGGGUGGGGGUGAUAACGUUUUCUCCAGUUCAACAGGAGUGCUUGACCCAAGUCAGUCAUGGAAUUCUCGGGUGCCAA", "RBNS enrichment (R)": 0.591}
{"Oligonucleotide": "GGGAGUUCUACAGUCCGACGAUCGAAUUAUGUGCACUACCAUAGCUACAUCAGUUUGAUACAGUAUUGAAAAAUUAUCAGUUAUAUUUUGCUGUUUAUGAUCUAUUUGUAGAUUAGGAUUAAAAUGGAUUUAAUGGAAUUCUCGGGUGCCAA", "RBNS enrichment (R)": 0.9}
{"Oligonucleotide": "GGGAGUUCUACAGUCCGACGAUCUAUUAGCAUUAGUGUGCACAGGGUACUUUUGAAAUGGUUUUGGAUAGAUUUACAAUAUGUAAGAUUAAGCUGUUGAUUUCAAUAGAGCUGAGAGCUUUUAGUAAAAAUAGUGGAAUUCUCGGGUGCCAA", "RBNS enrichment (R)": 0.957}
{"Oligonucleotide": "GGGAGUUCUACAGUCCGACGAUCGCCUUACACGCCAGGCAAGUGUGACCACUGAGCUAGGCUCCCGCCCCCUUUACUUUUUGAAGCCAUACAAUGGAUGUCUAUAUGUUGCCUUUUUGAAGAUUAGGUGGUUUUGGAAUUCUCGGGUGCCAA", "RBNS enrichment (R)": 0.422}
{"Oligonucleotide": "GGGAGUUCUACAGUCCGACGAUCGGUGCUCACAAUUGUCUCUCACAGUGUAUGUGAUUUUUUUAAGGAAAAAAAAAAAUCCCUAUUUAAGAUUCUGAAGGUGCUACCAUUAUUUUGCCACAGACUUUGAAGAAUGGAAUUCUCGGGUGCCAA", "RBNS enrichment (R)": 0.646}
{"Oligonucleotide": "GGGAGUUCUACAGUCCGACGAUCCUGCCAUCAUAAGUAUGGAGUAAGCUAAAGGAUGACCGUUAUGCCCGUGUAGACAUAGUGUACUCAGCAGAUGUAGAAUGUGAGCUCAUCAGCCUUGGCCUGGCUGAAACUGGAAUUCUCGGGUGCCAA", "RBNS enrichment (R)": 1.38}
{"Oligonucleotide": "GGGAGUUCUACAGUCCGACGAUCUAUGCGGAGACUGAUACAUUUUCUUAAUGGACAAUGUUCAAGCCAGGUACCCAUGCUUGAUCUGUCUUCACACCAGACCUCCUCAUAUUAAAAGGAAAAAUAAGAAAAAAUGGAAUUCUCGGGUGCCAA", "RBNS enrichment (R)": 0.569}
{"Oligonucleotide": "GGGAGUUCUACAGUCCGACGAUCGGCAGAAGAUUCAAAGCAGCUUAAACAGCACUUUUAAAUUAACUCCUAAGCGUUACAUGGUUGUGACUAUGGAAACUCCAGUUAAGACAGGAUCUUAUCAGAGGUGGACAUGGAAUUCUCGGGUGCCAA", "RBNS enrichment (R)": 0.293}
{"Oligonucleotide": "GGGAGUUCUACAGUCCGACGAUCCCCUUUGUUGCUGUCUGAGAAAGUGAAAGAUUGUGUAUUUCUAUUAAAACAUUUACAGUCAAAAUCCAAUAACUUGUGCUUAAACAUCAUUUAAUCUCAUGAGUUUUAAAUGGAAUUCUCGGGUGCCAA", "RBNS enrichment (R)": 0.414}
{"data": "Block 2", "target": "Ras GTPase-activating protein-binding protein 1, full length (G3BP1, Homo sapiens, UniProt Q13283)", "method": "RNA Bind-n-Seq", "molecule type": "RNA", "sample": "in vitro", "tested at": "200 nM", "setting": "whole 134-nt RNA, ends assumed", "with": "150 mM LiCl", "relative to": "input library", "reading": "higher = stronger binding", "all molecules": "7-deaza-guanosine replaces G", "sequence of UniProt Q13283 (whole entry, looked up)": "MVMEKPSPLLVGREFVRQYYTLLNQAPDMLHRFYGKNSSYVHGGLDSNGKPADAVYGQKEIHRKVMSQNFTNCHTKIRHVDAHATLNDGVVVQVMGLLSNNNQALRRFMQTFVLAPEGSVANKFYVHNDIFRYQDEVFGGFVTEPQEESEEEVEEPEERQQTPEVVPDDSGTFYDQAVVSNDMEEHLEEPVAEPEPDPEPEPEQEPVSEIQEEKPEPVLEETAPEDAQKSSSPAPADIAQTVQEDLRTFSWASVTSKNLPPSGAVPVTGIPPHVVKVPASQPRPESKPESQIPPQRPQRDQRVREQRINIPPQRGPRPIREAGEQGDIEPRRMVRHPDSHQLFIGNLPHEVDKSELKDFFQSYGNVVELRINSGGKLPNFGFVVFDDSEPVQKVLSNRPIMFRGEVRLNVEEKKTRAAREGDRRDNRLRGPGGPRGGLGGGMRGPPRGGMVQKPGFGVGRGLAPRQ"}
{"Oligonucleotide": "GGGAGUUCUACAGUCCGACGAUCUAACUUUAGAGGAGGAUCUGGUGGAUAUGGCAGUGGACGUGGAUUUGGGGAUGGCUAUAAUGGGUAUGGAGGAGGACCUGGAGGUGGCAAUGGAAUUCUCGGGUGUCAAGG", "log2 enrichment": 0.00648}
{"Oligonucleotide": "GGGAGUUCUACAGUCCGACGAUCUGGCCCUGGUGGCAUGCGGGGAGGAAGAGGUGGCCUCUUGGAUCGUGGUGGUCCCGGUGGAAUGUUCAGAGGUGGCCGUGGUGGAGACAGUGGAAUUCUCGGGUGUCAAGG", "log2 enrichment": 0.326}
{"Oligonucleotide": "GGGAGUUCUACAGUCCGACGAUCUCCUGUGCUACACAUCGUAUGUACCGAAUCGGGAAAAAGGGGAAAAAGGGAAAAAGGGGAAAGUAUUAUGUUACGCCGUUCGGAUCUGCAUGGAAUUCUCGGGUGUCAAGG", "log2 enrichment": -0.264}
{"Oligonucleotide": "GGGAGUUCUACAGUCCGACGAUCUGGCCCUGGUGGCAUGCGGGGAGGAAGAGGUGGCCUCAUGGAUCGUGGUGUUCCCGGUGGAAUGUUCAGAGGUGGCCGUGGUGGAGACAGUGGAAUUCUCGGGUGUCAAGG", "log2 enrichment": 0.364}
{"Oligonucleotide": "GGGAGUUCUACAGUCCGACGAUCAGUCCUGUGCUACACAUCGUAUGUACCGAAUCGGGAAAAAGGGUUUUUGGGAAAGGGAAAGUAUUAUGUUACGCCGUUCGGAUCUGCACUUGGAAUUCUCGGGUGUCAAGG", "log2 enrichment": -1.73}
{"Oligonucleotide": "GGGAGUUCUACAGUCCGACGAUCGCAGGAAGUAAAAACAAAUGGAAAUGCUUCGGAUAGUGGCAGGGGUGAGGGUUGCUAAGGAAAGGGUGGGAUGGGAGUGGGUAAAGAGUUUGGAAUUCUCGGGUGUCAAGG", "log2 enrichment": 0.121}
{"Oligonucleotide": "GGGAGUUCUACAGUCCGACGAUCAAGUCCUGUGCUACACAUCGUAUGUACCGAAUCGGCCCCCGGCCCCCGGCCCCCGGAAAGUAUUAUGUUACGCCGUUCGGAUCUGCACUUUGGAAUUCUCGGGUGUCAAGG", "log2 enrichment": 0.0715}
{"Oligonucleotide": "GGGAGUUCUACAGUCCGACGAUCUGGCCCUGGUGGCAUGCGAGGAGGAAGAGGUGGCCUCAUGGAUCGUGGUGGUCCCGGUGGAAUGUUCAGAGGUGGCCGUGGUGGAGACAGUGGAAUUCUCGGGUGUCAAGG", "log2 enrichment": -0.00137}
{"Oligonucleotide": "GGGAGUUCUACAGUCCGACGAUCAGUCCUGUGCUACACAUCGUAUGUACCGAAUCGGUUUUGGGGUUUUGGGGUUUUGGGGAAAGUAUUAUGUUACGCCGUUCGGAUCUGCACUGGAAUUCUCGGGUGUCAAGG", "log2 enrichment": 0.536}
{"Oligonucleotide": "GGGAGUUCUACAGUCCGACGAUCUGGCCCUGCUGGCAUGCGGGGAGGAAGAGGUGGCCUCAUGGAUCGUGGUGGUCCCGGUGGAAUGUUCAGAGGUGGCCGUGGUGGAGACAGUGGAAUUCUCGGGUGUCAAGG", "log2 enrichment": 0.312}
{"Oligonucleotide": "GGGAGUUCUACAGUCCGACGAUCGUCCUGUGCUACACAUCGUAUGUACCGAAUCGGGGAAAAAGGGAAAAAGGAAAAAGGGGAAAGUAUUAUGUUACGCCGUUCGGAUCUGCAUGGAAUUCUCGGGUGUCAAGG", "log2 enrichment": -0.0667}
{"data": "Block 3", "target": "CCNB3, cyclin fold, Cln2 fusion (human)", "method": "yeast growth competition, sequencing", "sample": "yeast", "setting": "weak parent motif", "relative to": "not given", "reading": "higher = stronger binding", "parent": "WEE1 docking peptide (human); HKTFRKLRLFDTP"}
{"Substitution": "T12D", "normalised enrichment score": 0.652}
{"Substitution": "F4L", "normalised enrichment score": -0.127}
{"Substitution": "L7H", "normalised enrichment score": -0.269}
{"Substitution": "H1L", "normalised enrichment score": -0.547}
{"Substitution": "P13G", "normalised enrichment score": -0.448}
{"Substitution": "K6M", "normalised enrichment score": -0.45}
{"Substitution": "K6H", "normalised enrichment score": -0.0852}
{"Substitution": "P13V", "normalised enrichment score": 0.0859}
{"data": "Further values, each from its own experiment"}
{"Molecule": "PhoQ, residues 284 288 289 292 302 303 SIHMAM", "target": "PhoP, residues 12 14 15 18 19 LYHSL (Escherichia coli, UniProt P23836)", "test": "Sort-seq, measured: YFP reporter", "test system": "E. coli", "conditions": "PhoQ-PhoP variant library, with: 10 µM Mg2+", "scale": "relative to: high Mg2+ state, higher = stronger signaling", "quantity": "fold induction", "value": 2.96}
{"note": "Some of these lines once more (block 1):"}
{"Oligonucleotide": "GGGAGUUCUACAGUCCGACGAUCGAAUUAUGUGCACUACCAUAGCUACAUCAGUUUGAUACAGUAUUGAAAAAUUAUCAGUUAUAUUUUGCUGUUUAUGAUCUAUUUGUAGAUUAGGAUUAAAAUGGAUUUAAUGGAAUUCUCGGGUGCCAA", "RBNS enrichment (R)": 0.9}
{"Oligonucleotide": "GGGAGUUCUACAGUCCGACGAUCUAUUAGCAUUAGUGUGCACAGGGUACUUUUGAAAUGGUUUUGGAUAGAUUUACAAUAUGUAAGAUUAAGCUGUUGAUUUCAAUAGAGCUGAGAGCUUUUAGUAAAAAUAGUGGAAUUCUCGGGUGCCAA", "RBNS enrichment (R)": 0.957}
